Experimental data from different studies.
Lines come from different studies, so protocols differ. “And” joins repeats or separate records; there may be more than shown. ± gives the spread as reported.
HDAC6: Protein deacetylase HDAC6 (HDAC6, Homo sapiens, UniProt Q9UBN7)
Sequence of UniProt Q9UBN7 (whole entry, looked up): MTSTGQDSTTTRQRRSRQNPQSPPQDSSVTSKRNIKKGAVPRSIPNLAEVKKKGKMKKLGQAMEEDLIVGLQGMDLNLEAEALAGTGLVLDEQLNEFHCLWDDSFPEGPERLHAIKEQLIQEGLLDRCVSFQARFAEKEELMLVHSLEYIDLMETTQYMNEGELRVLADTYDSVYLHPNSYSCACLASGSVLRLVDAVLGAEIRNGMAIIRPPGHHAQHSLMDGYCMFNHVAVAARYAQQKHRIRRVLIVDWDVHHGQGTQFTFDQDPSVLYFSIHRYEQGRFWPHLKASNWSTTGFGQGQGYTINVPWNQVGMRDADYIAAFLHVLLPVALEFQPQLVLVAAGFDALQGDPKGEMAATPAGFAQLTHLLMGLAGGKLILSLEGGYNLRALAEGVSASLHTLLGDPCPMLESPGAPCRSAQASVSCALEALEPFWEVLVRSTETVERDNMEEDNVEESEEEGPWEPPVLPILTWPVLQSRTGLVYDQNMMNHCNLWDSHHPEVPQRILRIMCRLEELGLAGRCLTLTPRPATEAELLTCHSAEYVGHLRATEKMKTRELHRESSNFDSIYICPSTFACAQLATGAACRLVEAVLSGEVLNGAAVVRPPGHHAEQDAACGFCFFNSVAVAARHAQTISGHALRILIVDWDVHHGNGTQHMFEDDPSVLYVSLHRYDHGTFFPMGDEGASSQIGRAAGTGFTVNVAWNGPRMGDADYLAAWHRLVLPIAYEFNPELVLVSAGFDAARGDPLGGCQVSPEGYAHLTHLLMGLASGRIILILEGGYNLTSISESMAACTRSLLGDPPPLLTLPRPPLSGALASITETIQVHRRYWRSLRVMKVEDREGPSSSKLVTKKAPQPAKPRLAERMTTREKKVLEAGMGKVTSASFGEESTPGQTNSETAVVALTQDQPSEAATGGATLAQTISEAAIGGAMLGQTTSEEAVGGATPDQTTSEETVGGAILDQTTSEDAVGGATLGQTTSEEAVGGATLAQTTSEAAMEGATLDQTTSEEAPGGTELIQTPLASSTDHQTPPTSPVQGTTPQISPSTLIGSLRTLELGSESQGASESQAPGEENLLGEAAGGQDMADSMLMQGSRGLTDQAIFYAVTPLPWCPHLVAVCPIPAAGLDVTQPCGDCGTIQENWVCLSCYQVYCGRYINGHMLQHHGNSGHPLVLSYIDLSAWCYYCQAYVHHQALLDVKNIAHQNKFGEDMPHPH
CD58: Lymphocyte function-associated antigen 3 (CD58, Homo sapiens, UniProt P19256)
Sequence of UniProt P19256 (whole entry, looked up): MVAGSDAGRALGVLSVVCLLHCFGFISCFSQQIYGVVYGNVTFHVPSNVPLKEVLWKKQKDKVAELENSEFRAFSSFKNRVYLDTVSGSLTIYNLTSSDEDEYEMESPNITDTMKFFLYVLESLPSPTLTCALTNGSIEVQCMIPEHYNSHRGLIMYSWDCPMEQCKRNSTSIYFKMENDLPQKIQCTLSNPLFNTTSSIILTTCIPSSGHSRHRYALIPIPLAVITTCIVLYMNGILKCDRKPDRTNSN
CPL: CPL (Toxoplasma gondii, UniProt Q6DMN0)
Sequence of UniProt P00488 (whole entry, looked up): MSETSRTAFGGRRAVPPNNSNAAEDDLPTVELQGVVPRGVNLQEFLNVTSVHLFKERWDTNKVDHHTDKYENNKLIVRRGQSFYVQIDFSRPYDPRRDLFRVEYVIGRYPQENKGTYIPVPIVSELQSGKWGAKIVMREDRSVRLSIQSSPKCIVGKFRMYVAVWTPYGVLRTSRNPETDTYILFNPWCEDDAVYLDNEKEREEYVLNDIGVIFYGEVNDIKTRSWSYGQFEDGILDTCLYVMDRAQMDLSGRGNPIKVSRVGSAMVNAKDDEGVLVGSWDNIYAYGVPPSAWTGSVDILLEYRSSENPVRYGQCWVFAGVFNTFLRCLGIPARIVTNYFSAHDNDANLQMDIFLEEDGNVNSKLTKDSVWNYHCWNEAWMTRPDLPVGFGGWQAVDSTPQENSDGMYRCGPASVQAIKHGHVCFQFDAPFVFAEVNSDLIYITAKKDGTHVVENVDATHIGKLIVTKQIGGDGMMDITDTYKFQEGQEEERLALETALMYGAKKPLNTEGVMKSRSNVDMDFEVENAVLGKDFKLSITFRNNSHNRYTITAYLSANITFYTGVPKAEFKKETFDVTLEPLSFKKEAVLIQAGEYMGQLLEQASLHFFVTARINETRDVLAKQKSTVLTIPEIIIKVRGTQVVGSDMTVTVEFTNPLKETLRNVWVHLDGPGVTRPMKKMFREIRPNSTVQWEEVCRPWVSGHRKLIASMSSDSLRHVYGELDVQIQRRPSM
Sequence of UniProt O75475 (whole entry, looked up): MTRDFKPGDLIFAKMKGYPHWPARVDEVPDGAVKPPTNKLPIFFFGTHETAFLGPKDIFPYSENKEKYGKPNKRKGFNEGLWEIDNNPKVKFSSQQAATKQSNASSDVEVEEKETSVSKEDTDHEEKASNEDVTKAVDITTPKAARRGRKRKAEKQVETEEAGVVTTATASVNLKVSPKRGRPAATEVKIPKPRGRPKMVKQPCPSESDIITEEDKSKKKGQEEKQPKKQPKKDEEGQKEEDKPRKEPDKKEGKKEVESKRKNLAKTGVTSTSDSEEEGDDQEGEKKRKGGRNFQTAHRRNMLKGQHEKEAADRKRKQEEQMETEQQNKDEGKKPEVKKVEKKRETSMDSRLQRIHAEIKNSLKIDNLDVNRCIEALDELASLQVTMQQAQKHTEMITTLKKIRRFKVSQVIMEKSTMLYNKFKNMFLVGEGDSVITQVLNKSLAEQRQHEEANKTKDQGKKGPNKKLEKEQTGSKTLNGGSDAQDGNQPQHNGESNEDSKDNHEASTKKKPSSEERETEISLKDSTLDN
Sequence of UniProt P78325 (whole entry, looked up): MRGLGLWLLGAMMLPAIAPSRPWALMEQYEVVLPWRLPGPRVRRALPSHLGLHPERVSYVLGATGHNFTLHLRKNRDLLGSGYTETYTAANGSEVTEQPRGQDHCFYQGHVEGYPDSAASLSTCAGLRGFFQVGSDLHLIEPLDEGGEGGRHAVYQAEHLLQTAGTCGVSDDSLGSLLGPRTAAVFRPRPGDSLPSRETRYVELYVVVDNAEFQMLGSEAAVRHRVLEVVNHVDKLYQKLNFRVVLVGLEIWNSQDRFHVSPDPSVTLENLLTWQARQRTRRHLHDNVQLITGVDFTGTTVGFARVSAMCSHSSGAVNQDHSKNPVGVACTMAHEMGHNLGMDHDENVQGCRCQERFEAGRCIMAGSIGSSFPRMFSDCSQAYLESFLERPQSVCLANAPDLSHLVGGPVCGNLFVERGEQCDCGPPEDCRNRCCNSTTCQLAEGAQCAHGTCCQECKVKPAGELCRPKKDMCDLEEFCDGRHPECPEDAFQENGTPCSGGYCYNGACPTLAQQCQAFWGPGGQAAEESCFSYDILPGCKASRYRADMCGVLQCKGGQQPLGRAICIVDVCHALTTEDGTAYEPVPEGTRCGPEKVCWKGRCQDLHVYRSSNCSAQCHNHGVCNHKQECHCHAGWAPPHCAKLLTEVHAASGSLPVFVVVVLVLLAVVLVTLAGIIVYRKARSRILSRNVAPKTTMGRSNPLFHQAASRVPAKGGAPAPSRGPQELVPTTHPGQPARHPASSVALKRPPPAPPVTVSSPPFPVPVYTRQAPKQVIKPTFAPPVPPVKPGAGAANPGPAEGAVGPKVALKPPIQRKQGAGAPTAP
Sequence of UniProt O00748 (whole entry, looked up): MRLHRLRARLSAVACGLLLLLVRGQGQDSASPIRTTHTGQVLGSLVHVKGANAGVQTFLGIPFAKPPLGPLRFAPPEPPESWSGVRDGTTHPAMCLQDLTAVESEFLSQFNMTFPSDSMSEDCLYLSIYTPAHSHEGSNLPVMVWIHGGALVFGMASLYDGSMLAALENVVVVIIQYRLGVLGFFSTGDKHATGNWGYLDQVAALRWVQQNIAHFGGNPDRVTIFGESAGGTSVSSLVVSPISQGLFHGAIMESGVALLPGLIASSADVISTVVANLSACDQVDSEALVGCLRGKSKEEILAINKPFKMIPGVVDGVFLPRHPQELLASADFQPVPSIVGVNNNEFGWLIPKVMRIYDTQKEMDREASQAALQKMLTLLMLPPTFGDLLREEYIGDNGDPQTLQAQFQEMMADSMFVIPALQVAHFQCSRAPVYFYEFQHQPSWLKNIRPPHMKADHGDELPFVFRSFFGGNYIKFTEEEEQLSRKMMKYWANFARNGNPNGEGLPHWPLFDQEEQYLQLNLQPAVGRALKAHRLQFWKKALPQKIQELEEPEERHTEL
Sequence of UniProt P48546 (whole entry, looked up): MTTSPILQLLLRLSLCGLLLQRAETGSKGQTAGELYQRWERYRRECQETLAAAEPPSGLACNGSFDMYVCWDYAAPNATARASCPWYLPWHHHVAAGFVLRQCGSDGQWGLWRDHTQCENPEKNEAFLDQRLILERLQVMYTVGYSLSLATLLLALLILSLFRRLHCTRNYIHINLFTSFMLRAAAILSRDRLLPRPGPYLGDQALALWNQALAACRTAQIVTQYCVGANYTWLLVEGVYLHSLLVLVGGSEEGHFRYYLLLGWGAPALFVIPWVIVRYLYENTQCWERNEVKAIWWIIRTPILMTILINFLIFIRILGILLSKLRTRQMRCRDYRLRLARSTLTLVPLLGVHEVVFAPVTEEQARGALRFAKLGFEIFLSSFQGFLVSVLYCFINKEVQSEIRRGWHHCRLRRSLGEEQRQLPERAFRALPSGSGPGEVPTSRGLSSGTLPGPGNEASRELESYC
Sequence of UniProt P97689 (whole entry, looked up): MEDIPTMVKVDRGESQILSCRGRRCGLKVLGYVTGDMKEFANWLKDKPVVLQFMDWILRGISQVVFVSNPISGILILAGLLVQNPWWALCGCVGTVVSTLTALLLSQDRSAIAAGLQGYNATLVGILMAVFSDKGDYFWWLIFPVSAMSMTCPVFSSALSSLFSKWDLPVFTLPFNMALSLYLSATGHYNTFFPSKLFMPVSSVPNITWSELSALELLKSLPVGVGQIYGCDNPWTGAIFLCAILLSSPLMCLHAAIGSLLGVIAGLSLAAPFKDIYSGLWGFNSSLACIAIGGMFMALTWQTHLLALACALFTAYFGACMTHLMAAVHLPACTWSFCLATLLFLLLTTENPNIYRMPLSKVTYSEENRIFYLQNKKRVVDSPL

SMILES | target | assay | system | conditions | IC50
CC[C@@H]1C(=O)N(C)c2cnc(Nc3ccc(C(=O)NCCCC[C@H](NC(=O)COCCOCCNC(=O)COCCOCCNC(=O)COCCOCCNC(=O)COCCOCCNC(=O)[C@@H](NC(=O)[C@H](CO)NC(=O)[C@H](Cc4cncn4CCCCCCCCc4ccccc4)NC(=O)[C@H](CC(C)C)NC(=O)[C@@H]4CCCN4C(C)=O)[C@@H](C)OP(=O)(O)O)C(N)=O)cc3OC)nc2N1C1CCCC1 | ALK (Homo sapiens, UniProt Q9UM73) | enzyme activity, inhibitor |  |  | > 10 µM
CC(C)(C)c1ccc(S(=O)(=O)N2CC2C(N)=O)cc1 (stereo not shown) | P4HB (Homo sapiens, UniProt P07237) | enzyme activity, inhibitor, absorbance |  | pH 7.6 | 11.7 µM
COc1cc(OC)cc(C(=O)/C=C/c2ccc(N(C)CCO)cc2)c1 | PTGS1 (Ovis aries, UniProt P05979) | enzyme activity, inhibitor, ELISA |  |  | 41.3 µM
C[C@@H]1CCN(c2nc3ccc(Cl)cc3o2)CCN1S(=O)(=O)c1ccccc1 | HCRTR2 (Homo sapiens, UniProt O43614) | calcium signal, antagonist, fluorescence |  |  | 1.52 µM
CSCC[C@H](NC(=O)[C@H](Cc1ccccc1)NC(=O)[C@H](Cc1cnc[nH]1)NC(=O)CNC(=O)[C@@H](NC(=O)[C@H](C)NC(=O)[C@H](Cc1c[nH]c2ccccc12)NC(=O)[C@H](CC(C)C)NC(=O)[C@H](CC(N)=O)NC(=O)CN)[C@@H](C)O)C(N)=O | Gastrin-releasing peptide receptor (Rattus norvegicus, UniProt P52500) |  | cells, rat |  | 0.052 ± 0.002 µM
CNC(=[Se])NC | Urea transporter 1 (Slc14a1, Rattus norvegicus, UniProt P97689) | urea transport, inhibitor | rat erythrocytes | 15 min | > 25000 µM
COc1ccc(N=Nc2cccc(NC(=O)CCCCCCC(=O)NO)c2)cc1 | HDAC6 | enzyme activity, inhibitor |  | cis isomer, irradiated | 0.151 ± 0.027 µM
C#CCSc1nc(Sc2nnnn2C)c2nnn(Cc3ccccc3)c2n1 | KDM1A (Homo sapiens, UniProt O60341) | enzyme activity, inhibitor, fluorescence |  |  | 0.1 µM
COc1cc(OC)c(C(=O)/C=C/c2cccc(OC)c2OC)c(OC)c1 | PTGS2 (Homo sapiens, UniProt P35354) | enzyme activity, inhibitor, ELISA |  |  | 35.7 µM
Fc1ncc(C2CC3CCC2N3)cc1-c1cccnc1 (racemic) | Chrna7 (Rattus norvegicus, UniProt Q05941) | ion current, two-electrode voltage clamp |  | oocytes | 99 µM
CC(C)[C@H](NC(=O)[C@H](CO)NC(=O)[C@@H](N)CC(=O)O)C(=O)N[C@H]1CSC(=O)[C@H](Cc2ccccc2)NC(=O)[C@H](Cc2ccc(O)cc2)NC(=O)[C@H](CO)NC(=O)[C@H](C)NC1=O | Accessory gene regulator protein C (Staphylococcus aureus, UniProt O33590) |  |  |  | 0.013 µM
CC(C)C[C@@H]1NC(=O)[C@H](CCCCN)NC(=O)[C@H](CC(C)C)NC(=O)[C@@](C)(NC(=O)[C@H](Cc2ccccc2)NC(=O)[C@H](Cc2ccc(O)cc2)NC(=O)[C@H](C)NC(=O)[C@@H](N)[C@@H](C)O)CCCC=CCCC[C@@](C)(C(=O)NCC(=O)N[C@@H](CCCNC(=N)N)C(=O)N[C@@H](Cc2c[nH]c3ccccc23)C(N)=O)NC1=O | PC4 and SFRS1-interacting protein, with HIV integrase (Homo sapiens, UniProt O75475) | LEDGF/p75-integrase interaction, inhibitor |  |  | < 20 µM and 14 µM
C[C@@H]1NC(=O)[C@H](CCC(=O)O)NC(=O)[C@@H]2CSSC[C@H](NC(=O)[C@H](CCCCN)NC(=O)CNC1=O)C(=O)N[C@@H](CO)C(=O)N[C@H]1CSSC[C@H](NC(=O)[C@H](CC(=O)O)NC(=O)[C@@H]3CSSC[C@H](NC(=O)[C@H](Cc4ccc(O)cc4)NC1=O)C(=O)N[C@@H](CC(=O)O)C(=O)N[C@@H](C)C(=O)NCC(=O)N[C@@H](CC(=O)O)C(=O)N3)C(=O)N[C@@H](CCCCN)C(=O)N2 | CD58 |  | human cells |  | 0.027 ± 0.015 µM
CC[C@@H]1NC(=O)[C@H]([C@H](O)[C@H](C)Cc2nc3ccc(C(=O)c4ccccc4)cc3[nH]2)N(C)C(=O)[C@H](C(C)C)N(C)C(=O)[C@H](CC(C)C)N(C)C(=O)[C@H](CC(C)C)N(C)C(=O)[C@@H](C)NC(=O)[C@H](C)NC(=O)[C@H](CC(C)C)N(C)C(=O)[C@H](C(C)C)NC(=O)[C@H](CC(C)C)N(C)C(=O)CN(C)C1=O | PPIA (Homo sapiens, UniProt P62937) | enzyme activity, inhibitor |  |  | 0.0141 µM
COC(=O)C=CCCC(NC(=O)c1ccncc1C(=O)O)C(=O)NC(C(=O)N1CC(=O)CC1C(=O)NC(C(=O)NC(C(N)=O)C1CCCCC1)C1CCCCC1)C(C)(C)C (stereo not shown) | F13A1 (Homo sapiens, UniProt P00488) | isopeptidase activity, inhibitor |  | added: substrate A101, thrombin-activated | 0.014 µM and 0.016 µM
C=CCCN(Cc1ccc(F)cc1)c1nc(C#N)nc(N2CCOCC2)n1 | CPL | enzyme activity, inhibitor, Z-L-R-AMC hydrolysis fluorescence |  |  | 0.144 µM

SMILES | target | assay | system | conditions | IC50
CCC(CC)c1cc(C2CN3CCC2CC3CNC)nc(-c2ccncc2)n1 (stereo not shown) | ftsZ (Staphylococcus aureus, UniProt P0A031) | enzyme activity, inhibitor |  |  | 189 µM
Cc1[nH]c2ccccc2c1C(c1cccc(Br)c1)C(C#N)C#N (stereo not shown) | Cocaine esterase (CES2, Homo sapiens, UniProt O00748) | enzyme activity, inhibitor | human liver microsomes | pH 7.4, 37 °C, added: fluorescein diacetate | 2.89 ± 0.3 µM
C=CCCCC[C@](C)(NC(=O)[C@H](CC(C)C)NC(=O)[C@H](CCCCN)NC(=O)[C@H](CC(C)C)NC(=O)[C@](C)(CCCCC=C)NC(=O)[C@H](Cc1ccccc1)NC(=O)[C@H](Cc1ccc(O)cc1)NC(=O)[C@H](C)NC(=O)[C@@H](N)[C@@H](C)O)C(=O)NCC(=O)N[C@@H](CCCNC(=N)N)C(=O)N[C@@H](Cc1c[nH]c2ccccc12)C(N)=O | Gag-Pol polyprotein, integrase (gag-pol, Human immunodeficiency virus type 1 group M subtype B, UniProt P04585) | integrase strand transfer, inhibitor |  |  | 43 ± 5 µM
CC(C)CCN(Cc1cccc(C(F)(F)F)c1)c1nc(C#N)nc(N2CCOCC2)n1 | CPL | enzyme activity, inhibitor, Z-L-R-AMC hydrolysis fluorescence |  |  | 0.017 µM
C[C@@H]1NC(=O)[C@H](CCCCN)NC(=O)[C@@H]2CSSC[C@H](NC(=O)[C@H](CO)NC(=O)[C@@H]3CCCN3C(=O)[C@@H]3CCCN3C(=O)[C@H](C)NC(=O)[C@H](CO)NC1=O)C(=O)NC(c1cccc3ccccc13)CC(=O)N[C@@H](CC(=O)O)C(=O)NCC(=O)N[C@@H](CC(=O)O)C(=O)N[C@@H](CC(=O)O)C(=O)N2 (stereo partly shown) | CD58 |  |  |  | > 50 µM
C=C1C(=O)N[C@@H](C)C(=O)N(C)[C@@H](C)C(=O)N[C@@H]([C@H](OC(=O)[C@@H](NC(C)=O)[C@H](O)C(C)C)C(C)C)C(=O)N(C)[C@@H]([C@@H](C)OC)C(=O)O[C@H](C)[C@H](NC(C)=O)C(=O)O[C@H](Cc2ccccc2)C(=O)N1C | Guanine nucleotide-binding protein subunit alpha-11 (Homo sapiens, UniProt P29992, R183C) | inverse agonist, item: IP1 | HEK293 with Gα11 R183C | 30 min, basal | 0.0398 µM
C/C=C1\NC(=O)[C@H](CC(C)C)NC(=O)[C@H](NC(=O)[C@@H]2CSC[C@H]3NC(=O)[C@H]([C@@H](C)CC)NC(=O)[C@H](CC(N)=O)NC(=O)[C@H](Cc4ccc(O)cc4)NC(=O)[C@H](Cc4c[nH]c5ccccc45)NC(=O)[C@H](C)NC(=O)[C@@H](N)CSSC[C@H](NC3=O)C(=O)N[C@@H](CCCNC(=N)N)C(=O)N[C@@H](CC(C)C)C(=O)NCC(=O)N[C@@H](CC(N)=O)C(=O)N[C@@H](CCCCN)C(=O)NCC(=O)N[C@@H](C)C(=O)N[C@@H](Cc3ccc(O)cc3)C(=O)N2)[C@H](C)SC[C@@H](C(=O)N[C@@H](CCSC)C(=O)N2CCC[C@H]2C(=O)N[C@@H](CO)C(=O)N[C@@H](C)C(=O)N[C@@H](CC(N)=O)C(=O)O)NC(=O)[C@H](CCC(=O)O)NC(=O)[C@H](C(C)C)NC1=O | PBP1b (Escherichia coli) | transglycosylase activity, inhibitor |  | added: lipid II 4 µM | 29.5 ± 3.5 µM
CCCC[C@H](NC(=O)[C@H](Cc1ccccc1)NC(=O)[C@H](Cc1cnc[nH]1)NC(=O)CCNC(=O)[C@@H](NC(=O)[C@H](C)NC(=O)[C@H](Cc1c[nH]c2ccccc12)NC(=O)[C@H](CCC(N)=O)NC(=O)[C@H](N)Cc1ccc(O)cc1)C(C)C)C(N)=O | BRS3 (Homo sapiens, UniProt P32247) | human GRPR activity, cell-based |  |  | 0.00045 ± 4e-05 µM
CC(C)C[C@@H]1NC(=O)[C@@H](CCCNC(=N)N)NC(=O)[C@H](CCCCN)NC(=O)[C@H](CC(=O)O)NC(=O)[C@H](CCCCN)NC(=O)[C@H](CO)NC1=O | Disintegrin and metalloproteinase domain-containing protein 8 (Homo sapiens, UniProt P78325) | CD23 shedding, inhibitor, ELISA | COS-7, co-transfected with CD23 |  | 2.43 ± 0.087 µM
COc1ccc(C(=O)CCl)cc1 | Protein FosB, ΔFosB isoform (Fosb, Mus musculus, UniProt P13346) | ΔFOSB homodimer DNA binding, fluorescence polarization |  | 15 min, added: TMR-cdk5 oligonucleotide | > 200 µM
CN(C)c1ccc(C(=O)NCc2ccc(CNC(=O)CS)cc2)cc1 | HDAC6 | enzyme activity, inhibitor |  |  | 1.54 µM
CC[C@H](C)[C@H](NC(=O)[C@H](CO)NC(=O)[C@H](Cc1ccc(O)cc1)NC(=O)[C@H](CC(=O)O)NC(=O)[C@H](CO)NC(=O)[C@@H](NC(=O)[C@H](Cc1ccccc1)NC(=O)[C@@H](NC(=O)CNC(=O)[C@@H]1CCCN1C(=O)[C@H](C)NC(=O)[C@@H](N)Cc1ccc(O)cc1)[C@@H](C)O)[C@@H](C)CC)C(=O)N[C@@H](C)C(=O)N[C@@H](CCSC)C(=O)N[C@@H](CC(=O)O)C(=O)N[C@@H](CCCCN)C(=O)N[C@H](C(=O)N[C@@H](CCCNC(=N)N)C(=O)N[C@@H](CCC(N)=O)C(=O)N[C@@H](CCC(N)=O)C(=O)N[C@@H](CC(=O)O)C(=O)N[C@@H](Cc1ccccc1)C(=O)N[C@H](C(=O)N[C@@H](CC(N)=O)C(=O)N[C@@H](Cc1c[nH]c2ccccc12)C(=O)N[C@@H](CC(C)C)C(=O)N[C@@H](CC(C)C)C(=O)N[C@@H](C)C(=O)N[C@@H](CCC(N)=O)C(=O)N[C@@H](CCCCN)C(=O)NCC(=O)N[C@@H](CCCCN)C(=O)N[C@@H](CCCCN)C(=O)N[C@@H](CC(N)=O)C(=O)N[C@@H](CC(=O)O)C(=O)N[C@@H](Cc1c[nH]c2ccccc12)C(=O)N[C@@H](CCCCN)C(=O)N[C@@H](Cc1c[nH]cn1)C(=O)N[C@@H](CC(N)=O)C(=O)N[C@@H](CC(C)C)C(=O)N[C@H](C(=O)N[C@@H](CCC(N)=O)C(=O)O)[C@@H](C)O)C(C)C)[C@@H](C)CC | GIPR (Homo sapiens, UniProt P48546) | ligand displacement in cells, radioligand |  |  | 0.0126 µM
CC(C)CN(Cc1ccc(F)cc1)c1nc(C#N)nc(N2CCOCC2)n1 | CPL | enzyme activity, inhibitor, Z-L-R-AMC hydrolysis fluorescence |  |  | 0.067 µM
NC1CC1c1ccc(NC(=O)C(CCc2ccccc2)NC(=O)OCc2ccccc2)cc1 (stereo not shown) | Lysine-specific histone demethylase 1A, with CoREST (KDM1A, Homo sapiens, UniProt O60341) | demethylase activity, inhibitor, Amplex UltraRed HRP |  | 15 min preincubation, added: H3K4me1 peptide, CoREST | 0.13 ± 0.025 µM
O=C(O)c1cc(Br)c[nH]1 | 4-diphosphocytidyl-2-C-methyl-D-erythritol kinase (Escherichia coli, UniProt P62615) | enzyme activity, inhibitor |  |  | 113 µM

Excerpt of the above:
SMILES | target | assay | system | conditions | IC50
CC[C@@H]1C(=O)N(C)c2cnc(Nc3ccc(C(=O)NCCCC[C@H](NC(=O)COCCOCCNC(=O)COCCOCCNC(=O)COCCOCCNC(=O)COCCOCCNC(=O)[C@@H](NC(=O)[C@H](CO)NC(=O)[C@H](Cc4cncn4CCCCCCCCc4ccccc4)NC(=O)[C@H](CC(C)C)NC(=O)[C@@H]4CCCN4C(C)=O)[C@@H](C)OP(=O)(O)O)C(N)=O)cc3OC)nc2N1C1CCCC1 | ALK (Homo sapiens, UniProt Q9UM73) | enzyme activity, inhibitor |  |  | > 10 µM
Cc1[nH]c2ccccc2c1C(c1cccc(Br)c1)C(C#N)C#N (stereo not shown) | Cocaine esterase (CES2, Homo sapiens, UniProt O00748) | enzyme activity, inhibitor | human liver microsomes | pH 7.4, 37 °C, added: fluorescein diacetate | 2.89 ± 0.3 µM
CC(C)C[C@@H]1NC(=O)[C@@H](CCCNC(=N)N)NC(=O)[C@H](CCCCN)NC(=O)[C@H](CC(=O)O)NC(=O)[C@H](CCCCN)NC(=O)[C@H](CO)NC1=O | Disintegrin and metalloproteinase domain-containing protein 8 (Homo sapiens, UniProt P78325) | CD23 shedding, inhibitor, ELISA | COS-7, co-transfected with CD23 |  | 2.43 ± 0.087 µM
C[C@@H]1NC(=O)[C@H](CCCCN)NC(=O)[C@@H]2CSSC[C@H](NC(=O)[C@H](CO)NC(=O)[C@@H]3CCCN3C(=O)[C@@H]3CCCN3C(=O)[C@H](C)NC(=O)[C@H](CO)NC1=O)C(=O)NC(c1cccc3ccccc13)CC(=O)N[C@@H](CC(=O)O)C(=O)NCC(=O)N[C@@H](CC(=O)O)C(=O)N[C@@H](CC(=O)O)C(=O)N2 (stereo partly shown) | CD58 |  |  |  | > 50 µM
